Published values pooled from the literature.
Parts stem from different laboratories: compare values within a part only. Substitutions count along the parent as printed.

Series 1
Target: CCND2, cyclin fold, Cln2 fusion (human)
Technique: yeast growth competition, sequencing
Medium: yeast
Setting: weak parent motif
Baseline: not given
Direction: higher = stronger binding
Starting sequence: MASTL docking peptide (human); PMIAKNLMCELDE; partner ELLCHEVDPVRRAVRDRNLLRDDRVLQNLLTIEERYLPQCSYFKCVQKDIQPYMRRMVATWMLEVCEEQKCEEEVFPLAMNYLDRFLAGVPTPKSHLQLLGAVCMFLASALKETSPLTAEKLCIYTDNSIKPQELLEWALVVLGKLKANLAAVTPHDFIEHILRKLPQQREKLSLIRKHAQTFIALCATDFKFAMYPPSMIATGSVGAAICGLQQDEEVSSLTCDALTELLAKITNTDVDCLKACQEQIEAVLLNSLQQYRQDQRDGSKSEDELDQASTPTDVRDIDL
Variant | normalised enrichment score
PMIAKNLMCELME [D12M] | 0.569
PIIAKNLMCELDE [M2I] | 0.357
PKIAKNLMCELDE [M2K] | 0.155
PMIAKNLMCLLDE [E10L] | 0.185
PMIAKNVMCELDE [L7V] | -0.403
PMWAKNLMCELDE [I3W] | 0.186
PDIAKNLMCELDE [M2D] | 0.109
PMIAKTLMCELDE [N6T] | 0.248
PMDAKNLMCELDE [I3D] | -0.106
PMIAKWLMCELDE [N6W] | 0.0603
PMIAYNLMCELDE [K5Y] | 0.0132
PMIAKNLMFELDE [C9F] | 0.189
PMIPKNLMCELDE [A4P] | 0.146
PMIAKMLMCELDE [N6M] | 0.224
PMNAKNLMCELDE [I3N] | 0.174
PMIAKNLMCEIDE [L11I] | 0.0894
PMIAKNLMCENDE [L11N] | 0.331
PFIAKNLMCELDE [M2F] | 0.0515
PMIAKQLMCELDE [N6Q] | 0.394
PMIAKNLLCELDE [M8L] | 0.216

Series 2
Target: Centromere-binding protein 1, full length, N-terminal tag (CBF1, Saccharomyces cerevisiae, UniProt P17106, residues 1-351)
Sequence of UniProt P17106 (whole entry, looked up): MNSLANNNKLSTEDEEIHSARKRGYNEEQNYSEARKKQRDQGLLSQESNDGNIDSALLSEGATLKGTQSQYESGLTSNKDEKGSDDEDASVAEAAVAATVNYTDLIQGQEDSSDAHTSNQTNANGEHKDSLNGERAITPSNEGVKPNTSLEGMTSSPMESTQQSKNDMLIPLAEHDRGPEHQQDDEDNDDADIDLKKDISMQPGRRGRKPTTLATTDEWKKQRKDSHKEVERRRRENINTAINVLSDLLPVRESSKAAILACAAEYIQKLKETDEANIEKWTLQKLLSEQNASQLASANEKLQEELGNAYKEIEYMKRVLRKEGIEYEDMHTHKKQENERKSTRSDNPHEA
Technique: protein-binding microarray
Molecule type: double-stranded DNA, one strand shown
Medium: in vitro
Concentration: 0.8 µM
Setting: whole 60-bp probe, no competitor
Direction: higher = stronger binding
Shared flanks, not repeated: … GTCTTGATTCGCTTGACGCTGCTG
Strand | fluorescence intensity
GAACAAACCATAACACCCGTGATGACAACAACATAG | 822 a.u.
CCTAACTACTATAATAAGTCACGATAGCTTCGTACA | 927 a.u.
CTATATTTGAAAGGTCACCCGCCTATCGCAAAATTC | 587 a.u.
TGTACGAAGCTATTAGGTGACATTATAGTAGTTAGG | 539 a.u.
CTAAATCCCCTGAGTCATCAGAATCTGACTCAGTTC | 484 a.u.
CTACAAGAAGCAACAGCTGAGATATTTGTTTCTTTC | 521 a.u.
CTATCACAGATTGTTAGCCTGATGTATACAGTATTC | 529 a.u.
TGTACGAAGCTATATGATGGCGTTATAGTAGTTAGG | 510 a.u.
GAAGAATTTCGTTGTCACGTTGTTTTGGTAAGTTAG | 2590 a.u.
GAACCGTACAACCGTCATCAGACTTGCATGGAATAG | 528 a.u.
GAAGACTTTTCTGGTCACGTGACCTTTTTTTCTTAG | 64200 a.u.
CCTAACTACTATAATCCAGTCACATAGCTTCGTACA | 589 a.u.
CTAATGCCTTACCGGAACGTGGATTAAAAGGAGTTC | 546 a.u.
GAATTCATGTGCTTGCATGTGATGTCCTGCAGATAG | 1610 a.u.
CTAACTTTGTTGTTATCGCTGATGGCGCTCCTCTTC | 498 a.u.
CCTAACTACTATAGTAACGTGGGATAGCTTCGTACA | 549 a.u.
TGTACGAAGCTATACCAGGTGAGTATAGTAGTTAGG | 574 a.u.
CCTAACTACTATAGACACGCTCTATAGCTTCGTACA | 494 a.u.
GAATCTCCCCCAGGTCACGATATAAATGTCAATTAG | 1190 a.u.
GAATGTGATAGTGAGAGTGACACGTATTAATATTAG | 544 a.u.
CTATTAAAAACGATTCACGTGATATTCACGTGCTTC | 18800 a.u.
CTACCCAGCTGGGATGTGATCACGATGAGTGACTTC | 1080 a.u.
GAACTTCCGTTCTGATATCACATGTATAATAGTTAG | 2610 a.u.

Series 3
Target: Sal-like protein 4, full length isoform B (SALL4, Homo sapiens, UniProt Q9UJQ4-2, residues 1-616)
Technique: universal PBM
Molecule type: double-stranded DNA, one strand shown
Medium: in vitro
Concentration: not given
Setting: 8-mer, flanks averaged, mean of replicates
Direction: higher = stronger binding
Residues (chain): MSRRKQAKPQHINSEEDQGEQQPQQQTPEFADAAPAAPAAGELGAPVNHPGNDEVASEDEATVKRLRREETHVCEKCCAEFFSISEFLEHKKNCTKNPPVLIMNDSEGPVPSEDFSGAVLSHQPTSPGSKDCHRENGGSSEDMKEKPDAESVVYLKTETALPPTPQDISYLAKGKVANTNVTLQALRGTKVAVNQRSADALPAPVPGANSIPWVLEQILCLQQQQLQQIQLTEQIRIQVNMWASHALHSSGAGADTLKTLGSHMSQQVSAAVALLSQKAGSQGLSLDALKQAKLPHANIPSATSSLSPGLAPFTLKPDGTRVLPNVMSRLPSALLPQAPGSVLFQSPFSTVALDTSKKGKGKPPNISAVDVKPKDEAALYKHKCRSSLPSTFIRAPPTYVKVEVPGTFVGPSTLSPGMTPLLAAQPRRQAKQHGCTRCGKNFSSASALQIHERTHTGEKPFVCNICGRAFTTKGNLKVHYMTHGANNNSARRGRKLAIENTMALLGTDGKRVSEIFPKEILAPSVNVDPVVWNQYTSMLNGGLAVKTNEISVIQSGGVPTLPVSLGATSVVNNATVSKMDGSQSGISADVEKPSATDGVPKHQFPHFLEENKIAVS
Strand | E-score
GCTAGGTA | 0.00663
GGGTTAAA | -0.0496
CTTGTAGC | 0.0331
CCCGGTAG | -0.264
CGCCTATA | 0.116
ATAATTAC | 0.444
GTATGGTA | 0.133
CGTACACC | -0.11
ACCAATAT | 0.324
GCAGCGGA | -0.299
AACACATT | 0.242
CATGCACG | 0.0885
AGCCGAGA | -0.188
GCCTATAA | 0.175
CCGCGCAC | -0.256
AGCGGAAT | 0.0247
AAGCTTAG | -0.0157
CGTGTTAG | 0.0388
AGGAACGG | -0.165
AGTCTTAA | 0.0942
GCCAAGTA | -0.184

Series 4
Target: RING finger protein unkempt homolog, zinc fingers 1-6, SBP tag (UNK, Homo sapiens, UniProt Q9C0B0, residues 30-357)
Sequence of UniProt Q9C0B0 (30-357, looked up): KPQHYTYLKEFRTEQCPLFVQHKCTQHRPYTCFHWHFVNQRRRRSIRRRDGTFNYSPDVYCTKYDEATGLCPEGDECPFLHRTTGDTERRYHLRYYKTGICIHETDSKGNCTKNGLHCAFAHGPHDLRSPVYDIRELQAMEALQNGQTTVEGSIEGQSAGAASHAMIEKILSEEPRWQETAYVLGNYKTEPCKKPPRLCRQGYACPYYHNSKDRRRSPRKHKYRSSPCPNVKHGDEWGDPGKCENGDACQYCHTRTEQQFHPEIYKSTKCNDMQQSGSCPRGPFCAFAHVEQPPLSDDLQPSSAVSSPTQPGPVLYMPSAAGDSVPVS
Technique: RNA Bind-n-Seq
Molecule type: RNA
Medium: in vitro
Concentration: 100 nM
Setting: RNA with constant flanks, vertebrate orthologous sites, ends assumed
Baseline: input RNA pool
Direction: higher = stronger binding
Shared flanks, not repeated: GGGAGUUCUACAGUCCGACGAUC … CAACAGAGGAUUGAGCAUCA
Strand | bound/input enrichment
GUGCAAGGAGAUUAUUCCAACUAGUGAAUUUAUUAACAGUAAAUUGACAGCAAAGGCAAACAGGCAGCUUCAAGAUCCUUUAGUAAUCAUGACCGGAAACAUCCCUACAUGGCUUACUGA | 0.713 ratio
CAUUGUAUCCUGCUGUAUAAUAAACAUUCUUAUGCAUUUAUCAAAUGUUGAUAAAAUGUUAGCCCUUAACCACUUUUAUAUGUUUUAAAUUUUUAAAUUCAAGUGUACCUUCCAUAACAU | 1.21 ratio
CUAUACGCUUUUAAAGAUAACUUCCUUGUAAGGCGCUUUGGCUAGUCAUAUAUUUACUCAUAUUUACAUAUCUGUGUUUUAUAAUAGCGGUGUAGAUUCAAAGGGGCCUCCUUUUGGGUU | 0.584 ratio
UGUUCAGCCUCUUUUAGGGAAGAGAUAAACUAGAGGGGAACUCUCUCCUUUUUUAUAAAUUAGCUCAUUUCUAAAUUAUGACCAAAAAAUAUUUUGCUAUUUCUUUCUUUAUAUGUGCAC | 1.27 ratio
GGUUGAUGUUCUGAAGAACCACUUAGUAAAAGAAGGUCGGGUAGAUGAAGAAAUUGCACUUAGAAUUAUCAAUGAGGGUGCUGCCAUUCUUCGGAGAGAGAAAACCAUGAUAGAAGUAGA | 0.807 ratio
GUGUUGGUGCAGGAUAGAGGGGAGGGAGAGGCAGGAAAGUGUGGAAUCUCUGGGGUGUUACAAGUAGGUAGUGGGCAUAAUUAGUUCUAAGUGGCCCUUUAUGUUAAAAACCCCUGGAAG | 1.42 ratio
GAGUGCGUGAACAUCUGCAUAAACUGGGAAGACUUGUACCCUUGGGCUCAUACAGAAACCUAUUUACACUCCAGUUCUAUACGCAGAGCAGUGUAGAUUCUGAGGGACAUCGAGCCUCUC | 0.196 ratio
AUUCAAACCUGUUGUACCAUGGCCUCAUGUUGAAGGCGUAGAAGUGGACUUAGAGUCUAUUAGAAGAAAAAACAAGGCGAAAAAUGAACAAGAGCGACAUGCUGGUGGAGAUAACCAGAA | 0.307 ratio
UACAGGAGCAGCUGGCCAACAGUGCUCAGCACUCUCUACAGGGUUAUCUGCAUGAUGAGAGUGACGUUUCAUAUCAACAGGACCUGUCCCCGCACACACCCGUACCCUGCAGUCCGGUGG | 0.445 ratio
GUUGUGACCCAUUUAACAUACACAAAAAACUAGCCAAAAAAAAUUUGCAUGUAAUUGAUUUAGAUGAUGCCACUUUCCUGAGUGCAAAAUUUGGAAGGCAGCUUGUACCUGGUUGGAAGC | 1.22 ratio
UAAAGUUAAUCAGUUGACUUGUAUUCUGAUGAUGUAACAUUGUGUAGCUUUUGUAUAAAAACAUGAAUUGGAAAUCGUCCAAAUAUCAAGCUAUUUUCUUGCUUUAAAGUUACUGAUGUG | 0.164 ratio

Series 5
Target: Prothrombin, mature alpha-thrombin (F2, Homo sapiens, UniProt P00734)
Technique: aptamer microarray, sandwich
Molecule type: DNA with 2'F-ANA
Medium: in vitro
Concentration: 200 nM
Setting: whole 15-mer aptamer, many near background
Added: Cy3 exosite-II aptamer, 400 nM
Direction: higher = stronger binding
Strand: GGTTGGTGTGGTTGG
Modification | mean fluorescence intensity [a.u.]
2'F-ANA at 5 6 7 9 11 14 15 | 46.5
2'F-ANA at 1 3 5 6 11 12 13 14 15 | 49.9
2'F-ANA at 4 5 6 11 12 15 | 95.4
2'F-ANA at 3 4 5 6 7 8 9 | 116
2'F-ANA at 4 5 7 9 10 12 13 15 | 47.2
2'F-ANA at 1 2 4 10 11 12 13 15 | 53.1
2'F-ANA at 2 6 7 11 12 13 | 449
2'F-ANA at 1 7 8 9 12 14 | 76.6
2'F-ANA at 2 5 11 | 60.7
2'F-ANA at 3 9 10 12 13 | 612
2'F-ANA at 2 5 6 7 10 14 15 | 49.5
2'F-ANA at 1 2 4 6 8 10 14 15 | 47.1
2'F-ANA at 1 4 8 10 12 15 | 62.7
2'F-ANA at 6 12 14 15 | 227
2'F-ANA at 2 4 5 6 11 12 13 14 | 47.1
2'F-ANA at 4 7 9 11 12 13 14 | 109

For quick reference, copied from above (series 1):
Variant | normalised enrichment score
PMIAKNLMCLLDE [E10L] | 0.185
PMIAKNVMCELDE [L7V] | -0.403
PMWAKNLMCELDE [I3W] | 0.186
PDIAKNLMCELDE [M2D] | 0.109
PMIAKTLMCELDE [N6T] | 0.248
PMDAKNLMCELDE [I3D] | -0.106
PMIAKWLMCELDE [N6W] | 0.0603
PMIAYNLMCELDE [K5Y] | 0.0132
PMIAKNLMFELDE [C9F] | 0.189
PMIPKNLMCELDE [A4P] | 0.146
PMIAKMLMCELDE [N6M] | 0.224
PMNAKNLMCELDE [I3N] | 0.174
